Assay results of several laboratories.
A part holds a random share of what one study measured.
UniProt P10721, sequence (whole entry, unmodified, looked up): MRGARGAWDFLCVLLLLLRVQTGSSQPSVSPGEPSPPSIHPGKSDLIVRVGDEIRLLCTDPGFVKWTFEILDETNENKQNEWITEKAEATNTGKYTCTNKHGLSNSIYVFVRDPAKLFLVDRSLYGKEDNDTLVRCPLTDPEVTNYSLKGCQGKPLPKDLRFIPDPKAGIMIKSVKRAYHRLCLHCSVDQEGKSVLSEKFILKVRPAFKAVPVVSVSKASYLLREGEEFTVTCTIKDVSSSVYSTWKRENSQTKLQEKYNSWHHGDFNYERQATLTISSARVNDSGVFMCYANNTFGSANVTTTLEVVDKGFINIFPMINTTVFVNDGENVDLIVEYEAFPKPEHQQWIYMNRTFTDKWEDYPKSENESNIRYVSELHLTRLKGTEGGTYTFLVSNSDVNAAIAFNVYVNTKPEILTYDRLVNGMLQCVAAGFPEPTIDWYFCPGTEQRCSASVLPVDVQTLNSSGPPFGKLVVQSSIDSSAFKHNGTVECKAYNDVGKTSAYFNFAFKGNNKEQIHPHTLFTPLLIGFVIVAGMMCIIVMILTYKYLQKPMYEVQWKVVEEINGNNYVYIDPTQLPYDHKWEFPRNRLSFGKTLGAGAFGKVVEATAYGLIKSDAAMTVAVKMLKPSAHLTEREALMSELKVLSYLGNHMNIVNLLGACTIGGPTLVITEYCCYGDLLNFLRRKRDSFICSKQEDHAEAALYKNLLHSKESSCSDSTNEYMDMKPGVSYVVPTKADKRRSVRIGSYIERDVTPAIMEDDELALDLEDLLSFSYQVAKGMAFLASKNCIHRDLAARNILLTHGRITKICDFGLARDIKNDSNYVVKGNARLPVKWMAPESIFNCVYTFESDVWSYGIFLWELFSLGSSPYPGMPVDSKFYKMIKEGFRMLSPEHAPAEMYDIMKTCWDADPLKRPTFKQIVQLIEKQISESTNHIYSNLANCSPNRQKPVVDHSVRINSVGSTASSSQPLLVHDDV
UniProt Q12852, sequence (whole entry, looked up): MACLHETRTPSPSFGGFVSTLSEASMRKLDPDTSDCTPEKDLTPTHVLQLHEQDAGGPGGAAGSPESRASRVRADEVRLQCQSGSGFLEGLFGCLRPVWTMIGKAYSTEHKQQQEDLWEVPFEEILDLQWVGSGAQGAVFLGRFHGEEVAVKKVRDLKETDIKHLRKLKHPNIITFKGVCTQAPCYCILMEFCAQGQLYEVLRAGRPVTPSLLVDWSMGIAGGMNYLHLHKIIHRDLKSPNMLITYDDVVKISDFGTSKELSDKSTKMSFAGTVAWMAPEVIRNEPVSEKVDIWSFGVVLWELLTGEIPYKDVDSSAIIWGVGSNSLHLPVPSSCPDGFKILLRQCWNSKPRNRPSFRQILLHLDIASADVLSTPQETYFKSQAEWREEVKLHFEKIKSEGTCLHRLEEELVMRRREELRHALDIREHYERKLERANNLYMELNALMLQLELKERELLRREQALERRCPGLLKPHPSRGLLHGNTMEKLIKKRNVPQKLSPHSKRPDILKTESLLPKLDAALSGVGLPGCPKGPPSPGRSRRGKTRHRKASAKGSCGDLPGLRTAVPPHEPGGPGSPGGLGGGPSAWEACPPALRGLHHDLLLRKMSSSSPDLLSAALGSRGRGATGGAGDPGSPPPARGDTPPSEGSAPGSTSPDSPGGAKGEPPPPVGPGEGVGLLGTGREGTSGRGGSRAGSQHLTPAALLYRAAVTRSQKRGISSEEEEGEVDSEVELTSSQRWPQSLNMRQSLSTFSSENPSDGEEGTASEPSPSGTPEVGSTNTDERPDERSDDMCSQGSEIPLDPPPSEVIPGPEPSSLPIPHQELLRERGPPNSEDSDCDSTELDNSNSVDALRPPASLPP
UniProt O96017, sequence (whole entry, looked up): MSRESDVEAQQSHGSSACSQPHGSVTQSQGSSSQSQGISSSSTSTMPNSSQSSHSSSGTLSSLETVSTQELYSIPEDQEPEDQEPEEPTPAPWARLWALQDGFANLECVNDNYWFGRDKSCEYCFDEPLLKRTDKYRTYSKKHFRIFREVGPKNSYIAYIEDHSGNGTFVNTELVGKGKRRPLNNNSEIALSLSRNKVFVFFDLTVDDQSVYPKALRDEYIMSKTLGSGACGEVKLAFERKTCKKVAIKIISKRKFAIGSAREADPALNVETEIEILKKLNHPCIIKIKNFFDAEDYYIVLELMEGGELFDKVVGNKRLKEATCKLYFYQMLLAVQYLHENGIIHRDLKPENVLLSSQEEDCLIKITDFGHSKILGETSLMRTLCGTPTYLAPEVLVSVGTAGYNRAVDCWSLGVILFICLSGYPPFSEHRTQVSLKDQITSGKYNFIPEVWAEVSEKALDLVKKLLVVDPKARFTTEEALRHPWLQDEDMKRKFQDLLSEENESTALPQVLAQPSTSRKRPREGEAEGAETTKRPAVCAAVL
UniProt Q8NEV4, sequence (whole entry, looked up): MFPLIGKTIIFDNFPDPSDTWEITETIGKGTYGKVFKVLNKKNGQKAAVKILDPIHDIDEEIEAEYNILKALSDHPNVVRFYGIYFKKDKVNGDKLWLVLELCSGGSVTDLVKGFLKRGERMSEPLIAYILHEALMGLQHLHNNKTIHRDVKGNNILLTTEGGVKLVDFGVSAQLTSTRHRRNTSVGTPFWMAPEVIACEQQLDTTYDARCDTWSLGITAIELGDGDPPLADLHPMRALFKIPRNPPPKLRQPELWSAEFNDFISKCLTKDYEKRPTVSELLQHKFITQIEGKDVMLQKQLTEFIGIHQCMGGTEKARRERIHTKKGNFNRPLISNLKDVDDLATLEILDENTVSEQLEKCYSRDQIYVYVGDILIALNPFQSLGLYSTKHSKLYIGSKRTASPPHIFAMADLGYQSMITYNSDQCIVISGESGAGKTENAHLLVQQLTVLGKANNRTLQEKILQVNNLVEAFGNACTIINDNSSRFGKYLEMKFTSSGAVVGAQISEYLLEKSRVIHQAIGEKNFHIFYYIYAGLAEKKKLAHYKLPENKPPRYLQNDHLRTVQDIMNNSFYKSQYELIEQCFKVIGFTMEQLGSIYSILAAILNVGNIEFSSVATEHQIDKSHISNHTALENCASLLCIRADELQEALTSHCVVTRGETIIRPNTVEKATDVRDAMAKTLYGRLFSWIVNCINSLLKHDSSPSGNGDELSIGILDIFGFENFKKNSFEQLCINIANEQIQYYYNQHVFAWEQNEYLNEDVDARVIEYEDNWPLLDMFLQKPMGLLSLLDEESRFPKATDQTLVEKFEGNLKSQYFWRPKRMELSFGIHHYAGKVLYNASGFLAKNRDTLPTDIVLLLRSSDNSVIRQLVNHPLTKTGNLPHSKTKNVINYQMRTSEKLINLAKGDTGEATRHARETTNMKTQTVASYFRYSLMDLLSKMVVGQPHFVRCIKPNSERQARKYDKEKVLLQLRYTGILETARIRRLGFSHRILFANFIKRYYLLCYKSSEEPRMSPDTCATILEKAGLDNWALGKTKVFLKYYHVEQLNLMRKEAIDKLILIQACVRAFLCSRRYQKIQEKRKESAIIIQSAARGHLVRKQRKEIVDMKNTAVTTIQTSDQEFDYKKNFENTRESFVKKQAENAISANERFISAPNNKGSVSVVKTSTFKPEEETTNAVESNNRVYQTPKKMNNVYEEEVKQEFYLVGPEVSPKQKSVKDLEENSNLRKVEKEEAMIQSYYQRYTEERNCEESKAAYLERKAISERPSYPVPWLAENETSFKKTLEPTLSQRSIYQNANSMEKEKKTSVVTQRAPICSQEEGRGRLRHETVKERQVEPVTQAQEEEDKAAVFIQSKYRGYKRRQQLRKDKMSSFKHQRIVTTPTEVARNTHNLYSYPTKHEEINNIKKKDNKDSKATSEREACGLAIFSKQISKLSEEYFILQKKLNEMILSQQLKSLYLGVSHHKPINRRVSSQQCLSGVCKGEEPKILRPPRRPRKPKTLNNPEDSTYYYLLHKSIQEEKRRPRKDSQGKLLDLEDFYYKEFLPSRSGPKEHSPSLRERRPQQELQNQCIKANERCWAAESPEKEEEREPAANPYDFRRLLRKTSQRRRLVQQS

Sample 1 — observed: enzyme activity; concentration: 5 µM
SMILES: O=C(Nc1cnn(-c2csc(C(=O)NC3COC3)c2)c1)Nc1c(F)cccc1Cl
target	action	relative to	remaining activity [%]
Cyclin-dependent kinase 16, with cyclin Y (CDK16, Homo sapiens, UniProt Q00536)	–	untreated control	100
Myosin-IIIa (MYO3A, Homo sapiens, UniProt Q8NEV4)	inhibitor	–	82.8
PDGFRB (Homo sapiens, UniProt P09619)	–	untreated control	92.4
MAP3K12 (Homo sapiens, UniProt Q12852)	–	untreated control	81.4
IGF1R (Homo sapiens, UniProt P08069)	–	untreated control	94.4
ULK1 (Homo sapiens, UniProt O75385)	–	untreated control	91.1
DYRK2 (Homo sapiens, UniProt Q92630)	–	untreated control	92
FGFR4 (Homo sapiens, UniProt P22455)	–	untreated control	98.5
DAPK2 (Homo sapiens, UniProt Q9UIK4)	–	untreated control	97.7
Cyclin-dependent kinase 8, with cyclin C (CDK8, Homo sapiens, UniProt P49336)	–	untreated control	98.8
MASTL (Homo sapiens, UniProt Q96GX5)	–	untreated control	93.5

Sample 2 — method: Phase 2a trial; species: idiopathic pulmonary fibrosis patients
SMILES: CC(C)n1cnc(-c2ccc(F)cc2)c1-c1ncc(C(=O)Nc2ccc(N3CCN(C)CC3)cc2)[nH]1
measured	route	dose	setting	patients with adverse events [%]
bile acids increased	–	30 mg once daily	grade 3 maximum intensity	0
oral herpes	oral	30 mg once daily	grade 3 maximum intensity	0
blood alkaline phosphatase increased	–	60 mg once daily	grade 2 maximum intensity	0
respiratory tract infection	–	30 mg once daily	grade 2 maximum intensity	0
vision blurred	–	60 mg once daily	grade 4 maximum intensity	0
tri-iodothyronine increased	–	60 mg once daily	grade 4 maximum intensity	0
gamma-glutamyltransferase increased	–	60 mg once daily	grade 3 maximum intensity	0
urinary tract infection	–	dose not given	grade 5 maximum intensity, all arms	0
eye disorders (SOC)	–	dose not given	grade 4 maximum intensity, all arms	0

Sample 3 — observed: cell-free assay; method: competition with immobilised ligand; concentration: 1 µM
SMILES: COc1ccc2c(O[C@@H]3C[C@H]4C(=O)N[C@]5(C(=O)O)CC5/C=C\CCCCC[C@H](NC(=O)OC5CCCC5)C(=O)N4C3)cc(-c3csc(NC(=O)C(C)C)n3)nc2c1C (stereo partly drawn)
target	remaining binding
WNK1 (Homo sapiens, UniProt Q9H4A3)	100%
CAMK1D (Homo sapiens, UniProt Q8IU85)	100%
FLT3 (Homo sapiens, UniProt P36888, F691L/ITD)	80%
PRKAA1 (Homo sapiens, UniProt Q13131)	100%
MAP3K12 (Homo sapiens, UniProt Q12852)	92%
FGR (Homo sapiens, UniProt P09769)	100%
CHEK2 (Homo sapiens, UniProt O96017)	94%
MARK1 (Homo sapiens, UniProt Q9P0L2)	100%
TESK1 (Homo sapiens, UniProt Q15569)	91%
DCLK1 (Homo sapiens, UniProt O15075)	76%
PRKCI (Homo sapiens, UniProt P41743)	96%
Mast/stem cell growth factor receptor Kit, autoinhibited (KIT, Homo sapiens, UniProt P10721)	72%
ALK (Homo sapiens, UniProt Q9UM73, L1196M)	97%
KIT (Homo sapiens, UniProt P10721, V559D)	91%
Tyrosine-protein kinase ABL1, phosphorylated (ABL1, Homo sapiens, UniProt P00519, H396P)	91%

Sample 4 — Compound: c1ccc(-c2n[nH]c3c2oc2ccccc23)cc1; observed: enzyme activity; action: inhibitor; concentration: 0.5 µM; relative to: control
target	remaining activity [%]
GRK2 (Homo sapiens, UniProt P25098)	104
EPHB2 (Homo sapiens, UniProt P29323)	83.1
RPS6KB1 (Homo sapiens, UniProt P23443)	99.9
FLT3 (Homo sapiens, UniProt P36888)	12.1
PIM2 (Homo sapiens, UniProt Q9P1W9)	104
PAK2 (Homo sapiens, UniProt Q13177)	92.3
SRPK3 (Homo sapiens, UniProt Q9UPE1)	94.5
NUAK1 (Homo sapiens, UniProt O60285)	96.2
GRK6 (Homo sapiens, UniProt P43250)	102
MYLK (Homo sapiens, UniProt Q15746)	86.1

Excerpt of the above (sample 4):
target	remaining activity [%]
SRPK3 (Homo sapiens, UniProt Q9UPE1)	94.5
GRK2 (Homo sapiens, UniProt P25098)	104
GRK6 (Homo sapiens, UniProt P43250)	102
RPS6KB1 (Homo sapiens, UniProt P23443)	99.9
